Published values from different studies.
± marks the error that the study gave.
Organism: Plasmodium falciparum

SMILES | assay | system | conditions | IC50
COc1cc(/C=C/c2ccc([N+](=O)[O-])cc2)oc(=O)c1 | parasite growth | K1 | drug-resistant strain, blood stage | < 10 µM
O=C(Nc1ccc(C2=NCCCN2)cc1)c1ccc(C(=O)Nc2ccc(C3=NCCCN3)cc2)cc1 | parasite proliferation, SYBR Green | 3D7 | 72 h | 0.5 µM
CCCCCCC(C)CC1=C(O)C(=O)c2c(C)cccc2C1=O (stereo not drawn) | parasite growth, [3H]hypoxanthine incorporation | TM91C235 multidrug-resistant, human erythrocytes |  | 0.229 µM
COC[C@H]1C(=O)NCC(=O)N2NCCC[C@H]2C(=O)N(O)[C@H](C)C(=O)O[C@@H](C(C)C)[C@H](NC(=O)[C@](C)(O)[C@]2(O)CC[C@@H](CC(C)C)[C@H](C)O2)C(=O)N2NCCC[C@@H]2C(=O)N1O | parasite proliferation, SYBR Green | 3D7 | 72 h | 0.092 µM
O=C(O)C(Cl)Cl | parasite growth | 3D7 | 48 h, blood stage | 5390 µM
CCC(Cc1cnc2nc(N)nc(N)c2n1)c1ccc(C(=O)N[C@@H](CCC(=O)O)C(=O)O)cc1 (stereo partly drawn) | parasite proliferation, SYBR Green | 3D7 | 72 h | 0.069 µM
NC(N)=Nc1ccc(-c2ccc(-c3ccc(N=C(N)N)c(Cl)c3)o2)cc1Cl | parasite growth, SYBR green I | INDO or Cam3.1 R539T, human red blood cells | 72 h | < 1 µM
OC(c1cc(C(F)(F)F)nc2c(C(F)(F)F)cccc12)C1CCCCN1 (stereo not drawn) | parasite growth | K1, multidrug-resistant |  | 0.27 µM
COc1ccc2cc3[n+](cc2c1OC)CCc1cc2c(cc1-3)OCO2 | parasite proliferation, SYBR Green | 3D7 | 72 h | 0.5 µM
CC(C)=CCC/C(C)=C/CNCCOC(C)(C)C | parasite growth | 3D7 | blood stage | 3.2 µg/mL
[N-]=[N+]=[N-] | oxygen consumption | K1 |  | > 500 µM
C[C@@H]1CC[C@H]2[C@@H](C)C(=O)O[C@@H]3O[C@@]4(C)CC[C@@H]1[C@]32OO4 | parasite growth, SYBR Green I | 3D7, chloroquine-sensitive |  | 0.0101 ± 0.0014 µM
CCCc1ccc(/C=C2\N=C(c3ccc[nH]3)C=C2OC)[nH]1 | parasite growth | D6 | 72 h | > 1.7 µM
CC(CCCCCC(F)(F)F)CC1=C(O)C(=O)c2ccccc2C1=O (stereo not drawn) | parasite growth, [3H]hypoxanthine incorporation | W2 chloroquine-resistant, human erythrocytes |  | 0.065 µM
C[C@H]1[C@@H](O)O[C@@H]2O[C@@]3(C)CC[C@H]4[C@H](C)CC[C@@H]1[C@@]24OO3 | parasite growth | K1, multidrug-resistant |  | 0.0036 µM
CCN(CC)CCCC(C)Nc1ccnc2cc(Cl)ccc12 (stereo not drawn) | parasite growth |  |  | 0.0114 to 0.0121 µM
O=CCCCCCCCCCCCOCCCc1cccnc1 | anti-HRPII ELISA | W2 chloroquine-resistant | 72 h | 30.6 ± 2.7 µM
CCN(CC)CCOc1ccc2c(=O)c3cc(F)c(OC)cc3[nH]c2c1 |  | D6 |  | > 0.116 µM
CCCCc1ccc(/C=C2\N=C(c3ccc[nH]3)C=C2OC)[nH]1 | parasite growth | D6 | 72 h | > 1.7 µM
CCN(CC)CCCC(C)Nc1ccnc2cc(Cl)ccc12 (stereo not drawn) | parasite growth, anti-HRPII | W2 | blood stage | 0.3 ± 0.02 µM
CCN(CC)CCCC(C)Nc1ccnc2cc(Cl)ccc12 (stereo not drawn) | oxygen consumption | K1, compound-resistant |  | > 12 µM
O=CCCCCCOCCCc1cccnc1 | anti-HRPII ELISA | W2 chloroquine-resistant | 72 h | 180 ± 8.3 µM
CC(C)[C@@H]1NC(=O)[C@H](C)OC(=O)[C@@H](C(C)C)NC(=O)[C@@H](C(C)C)OC(=O)[C@H](C(C)C)NC(=O)[C@H](C)OC(=O)[C@@H](C(C)C)NC(=O)[C@@H](C(C)C)OC(=O)[C@H](C(C)C)NC(=O)[C@H](C)OC(=O)[C@@H](C(C)C)NC(=O)[C@@H](C(C)C)OC1=O | parasite proliferation, SYBR Green | 3D7 | 72 h | 0.0071 µM

SMILES | assay | system | conditions | IC50
CC(C)=CCC/C(C)=C/CNCCOC1C2CC3CC(C2)CC1C3 (stereo not drawn) | parasite growth | 3D7 | blood stage | 0.79 µg/mL
CN1CCc2cccc3c2[C@@H]1Cc1ccc(O)c(O)c1-3 | parasite growth | erythrocytes | 48 h | 4 µM
O=C(C=Cc1ccc[nH]1)NCC(=O)NC12CC3CC(CC(C3)C1)C2 | parasite growth | 7G8, chloroquine-resistant |  | > 2.5 µM
c1ccc2c(c1)[I+]c1ccccc1-2 |  | 3D7 stage III-V gametocytes |  | 0.17 µM
C[C@@H]1C[C@H](C)C[C@H](C)[C@@H](O)CC(=O)O[C@H]([C@@H]2CCC[C@H]2C(=O)O)C/C=C/C=C(/C#N)[C@H](O)[C@@H](C)C1 | parasite proliferation, SYBR Green | 3D7 | 72 h | 0.083 µM
O=C1C(O)=C([C@H]2CC[C@H](c3ccc(Cl)cc3)CC2)C(=O)c2ccccc21 | growth, hypoxanthine incorporation | D6 chloroquine-sensitive, human erythrocytes |  | 0.00034 µM
CCCOC(=O)C[N+](C)(C)CCOCCCCCCCCCCOCC[N+](C)(C)CC(=O)OCCC | parasite proliferation, SYBR Green | 3D7 | 72 h | 0.04 µM
CC(C)=CCC/C(C)=C/CNCCOc1cccc2ccccc12 | parasite growth | 3D7 | blood stage | > 100 µg/mL
C/C=C(C)/C=C/C=C/[C@H](OC)[C@@H](C)[C@@H](OC)[C@@H](C)CCc1oc2c(O)c(OC)cc(OC)c2c(=O)c1C | oxygen consumption | K1 |  | 3.64 ± 1.78 µM
CC(C)=CC1=C(O)C(=O)c2ccccc2C1=O | parasite growth | W2 | drug-resistant strain, blood stage | 26.9 µM
C[C@H]1[C@@H](O)O[C@@H]2O[C@@]3(C)CC[C@H]4[C@H](C)CC[C@@H]1[C@@]24OO3 | parasite growth, SYTOX green flow cytometry | K1 chloroquine-resistant | 48 h, ring stage | 0.034 ± 0.00766 µM
N=C(N)c1ncc(-c2ccc(-c3cnc(C(=N)N)nc3)cc2)cn1 | parasite growth | K1 |  | ≤ 0.0006 µM
CC(C)=CCC/C(C)=C/COCC(=O)NC1C2CC3CC(C2)CC1C3 (stereo not drawn) | parasite growth | 3D7 | blood stage | 3.8 µg/mL
CCCC1(CCC)CCC2(CCN(CCCN(C)C)C2)CC1 | parasite proliferation, SYBR Green | 3D7 | 72 h | 0.3 µM
CCCCCCC(C)CC1=C(O)C(=O)c2ccccc2C1=O (stereo not drawn) | parasite growth, [3H]hypoxanthine incorporation | D6 chloroquine-sensitive, human erythrocytes |  | 0.063 µM
CC(C)=CCC/C(C)=C/COCCNC1C2CC3CC(C2)CC1C3 (stereo not drawn) | parasite growth | 3D7 | blood stage | 0.93 µg/mL
N=C(N)c1ccc(-c2ccc(-c3ccc(C(=N)N)nc3)cc2)cc1 | parasite growth | K1 |  | ≤ 0.0006 µM
C[C@@H]1CC[C@H]2[C@@H](C)C(=O)O[C@@H]3O[C@@]4(C)CC[C@@H]1[C@]32OO4 | parasite growth | K1 | drug-resistant strain, blood stage | 0.01 µM
O=C(NCCN1CCCC1)c1cc(-c2ccc(CN3CCOCC3)cc2)nc2ccc(F)cc12 | parasite growth | DD2 | 72 h, drug-resistant strain, blood stage | 0.0002 µM
O=CCCCCCCCOCCCc1cccnc1 | anti-HRPII ELISA | W2 chloroquine-resistant | 72 h | 52.4 ± 8.9 µM
CC(C)=CCC/C(C)=C/CNCCO[C@@H]1C[C@@H]2CC[C@@]1(C)C2(C)C | parasite growth | 3D7 | blood stage | 2 µg/mL
C[C@@H]1N[C@H](CCCCCCCCCCC2=C[C@@H](CCCCCCCCCC[C@@H]3CC[C@@H](O)[C@H](C)N3)[C@@H]3CCCN3C2)CC[C@H]1O.Cl.Cl | parasite growth | W2 | 72 h, drug-resistant strain, blood stage | 0.56 µg/mL

Repeated from above:
SMILES | assay | system | conditions | IC50
CCN(CC)CCCC(C)Nc1ccnc2cc(Cl)ccc12 (stereo not drawn) | oxygen consumption | K1, compound-resistant |  | > 12 µM
O=CCCCCCOCCCc1cccnc1 | anti-HRPII ELISA | W2 chloroquine-resistant | 72 h | 180 ± 8.3 µM
CC(C)[C@@H]1NC(=O)[C@H](C)OC(=O)[C@@H](C(C)C)NC(=O)[C@@H](C(C)C)OC(=O)[C@H](C(C)C)NC(=O)[C@H](C)OC(=O)[C@@H](C(C)C)NC(=O)[C@@H](C(C)C)OC(=O)[C@H](C(C)C)NC(=O)[C@H](C)OC(=O)[C@@H](C(C)C)NC(=O)[C@@H](C(C)C)OC1=O | parasite proliferation, SYBR Green | 3D7 | 72 h | 0.0071 µM
CC(C)=CCC/C(C)=C/CNCCOC1C2CC3CC(C2)CC1C3 (stereo not drawn) | parasite growth | 3D7 | blood stage | 0.79 µg/mL
CN1CCc2cccc3c2[C@@H]1Cc1ccc(O)c(O)c1-3 | parasite growth | erythrocytes | 48 h | 4 µM
O=C(C=Cc1ccc[nH]1)NCC(=O)NC12CC3CC(CC(C3)C1)C2 | parasite growth | 7G8, chloroquine-resistant |  | > 2.5 µM
